Results collected from several papers.
A part holds a random share of what one study measured.

Study 1 — method: RNA Bind-n-Seq; form: RNA; matrix: in vitro; tested at: 1 µM; setting: whole 134-nt RNA, ends assumed; together with: 150 mM KCl; relative to: input library; reading: higher = stronger binding
Target: Ras GTPase-activating protein-binding protein 1, RRM domain (G3BP1, Homo sapiens, UniProt Q13283)
Chain of UniProt Q13283 (whole entry, looked up): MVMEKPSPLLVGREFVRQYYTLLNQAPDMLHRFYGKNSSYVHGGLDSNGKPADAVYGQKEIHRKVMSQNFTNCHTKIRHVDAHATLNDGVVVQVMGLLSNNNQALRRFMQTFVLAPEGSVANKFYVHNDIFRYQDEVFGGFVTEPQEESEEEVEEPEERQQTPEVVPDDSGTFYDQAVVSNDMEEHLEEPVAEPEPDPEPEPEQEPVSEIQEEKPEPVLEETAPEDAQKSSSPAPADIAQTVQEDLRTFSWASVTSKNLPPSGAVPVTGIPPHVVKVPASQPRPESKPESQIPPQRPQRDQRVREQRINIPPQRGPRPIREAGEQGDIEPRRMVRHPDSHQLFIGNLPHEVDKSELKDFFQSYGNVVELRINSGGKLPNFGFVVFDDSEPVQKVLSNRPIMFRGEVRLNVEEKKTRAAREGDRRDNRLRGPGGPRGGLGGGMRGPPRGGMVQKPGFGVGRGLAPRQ
For `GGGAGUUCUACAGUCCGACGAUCGAUGAUUACUAUGGUUAUGAUUAUCACGACUAUCGUGGAGGCUAUGAAGAUCCCUACUACGGCUAUGAUGAUGGCUAUGCAGUAAGAGGAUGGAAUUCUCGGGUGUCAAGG`, the log2 enrichment was -0.154.
The log2 enrichment of `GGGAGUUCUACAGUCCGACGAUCUGUGCUACACAUCGUAUGUACCGAAUCGGGGUUUUUGGGGAAAAAAAGGGGUUUUUUUGGGGAAAGUAUUAUGUUACGCCGUUCGGAUCUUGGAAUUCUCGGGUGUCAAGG` is reported as 1.26.
With `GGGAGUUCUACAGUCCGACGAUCAGUCCUGUGCUACACAUCGUAUGUACCGAAUCGGCCCCCGGCCCCCGGGGCCCCCGGGAAAGUAUUAUGUUACGCCGUUCGGAUCUGCACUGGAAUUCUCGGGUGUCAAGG` the log2 enrichment was -0.443.
`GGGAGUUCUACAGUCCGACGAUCCCUGUGCUACACAUCGUAUGUACCGAAUCGGGAAAAAAGGGAAAAAAGGGGAAAAAAGGGAAAGUAUUAUGUUACGCCGUUCGGAUCUGCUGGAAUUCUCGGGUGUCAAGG` gave a log2 enrichment of 0.00649.
With `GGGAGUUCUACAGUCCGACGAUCUGGCCCUGGUGGCAUGCGGGGAGGAAGAGGUGGCAUCAUGGAUCGUGGUGGUCCCGGUGGAAUGUUCAGAGGUGGCCGUGGUGGAGACAGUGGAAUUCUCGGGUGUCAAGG` the log2 enrichment was 0.961.
With `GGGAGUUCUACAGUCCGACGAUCUCAAGUCCUGUGCUACACAUCGUAUGUACCGAAUCGGUUUGGGGUUUGGUUUGGAAAGUAUUAUGUUACGCCGUUCGGAUCUGCACUUCCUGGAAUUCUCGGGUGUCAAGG` the log2 enrichment was -0.273.
`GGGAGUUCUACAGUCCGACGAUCGUCCUGUGCUACACAUCGUAUGUACCGAAUCAAAUUUAAACCCCCAAACCCCCCCAAAAAAGUAUUAUGUUACGCCGUUCGGAUCUGCACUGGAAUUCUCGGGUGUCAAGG` gave a log2 enrichment of -0.382.
The log2 enrichment of `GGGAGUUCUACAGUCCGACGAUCUGUGCUACACAUCGUAUGUACCGAAUCGGGGAAAAAAAGGGGAAAAAAAGGGGUUUUUGGGGAAAGUAUUAUGUUACGCCGUUCGGAUCUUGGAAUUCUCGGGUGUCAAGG` is reported as 1.16.
For `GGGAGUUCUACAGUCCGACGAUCCCUGUGCUACACAUCGUAUGUACCGAAUCGGGGUUUUUUUGGGGAAAAAGGGGUUUGGGGAAAGUAUUAUGUUACGCCGUUCGGAUCUGCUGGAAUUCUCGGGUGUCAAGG`, the log2 enrichment was 0.358.

Study 2 — method: competition protein-binding microarray; form: double-stranded DNA, one strand shown; matrix: in vitro; tested at: 2 µM; together with: Pho4 competitor, 0.05 µM; reading: higher = stronger binding
Target: Centromere-binding protein 1, full length, His-tagged (CBF1, Saccharomyces cerevisiae, UniProt P17106, residues 1-351)
Chain of UniProt P17106 (whole entry, looked up): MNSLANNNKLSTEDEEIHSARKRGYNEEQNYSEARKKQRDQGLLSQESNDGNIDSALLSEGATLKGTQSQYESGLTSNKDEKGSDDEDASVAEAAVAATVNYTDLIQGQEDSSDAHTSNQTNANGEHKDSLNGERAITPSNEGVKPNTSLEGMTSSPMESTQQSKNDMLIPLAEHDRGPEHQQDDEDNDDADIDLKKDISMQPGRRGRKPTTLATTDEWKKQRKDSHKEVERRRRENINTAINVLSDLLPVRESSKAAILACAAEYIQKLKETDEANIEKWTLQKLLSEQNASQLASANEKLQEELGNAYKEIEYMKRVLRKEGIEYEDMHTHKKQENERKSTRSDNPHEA
Setting: whole 60-bp probe, lowest competitor level
With `CATACCCAACCTTGTCAGGTGGGTGAAGATATTTGTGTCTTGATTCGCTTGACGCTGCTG` the fluorescence intensity was 194 a.u.
For `TTGGAAAGTGGCGATCTTGTGACGGTCAACGATGATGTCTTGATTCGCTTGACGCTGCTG`, the fluorescence intensity was 76.3 a.u.
`AAAGCGGTAATTTGCCAAGTGGGTGCAGATATCTATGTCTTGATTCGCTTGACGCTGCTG` has a fluorescence intensity of 72.3 a.u.
`AAAGCGGTAATTTGTGGCGTGGGTGCAGATATCTATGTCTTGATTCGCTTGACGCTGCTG` gave a fluorescence intensity of 82.1 a.u.
`TGCGCAACAACTTGCCCCGTGGGTGTATGTCTAGAAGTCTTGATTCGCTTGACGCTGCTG` has a fluorescence intensity of 70.8 a.u.
`CTTTCCCGATCTTGCGAAGTGGGTGTAGCACATTTGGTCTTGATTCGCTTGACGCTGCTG` has a fluorescence intensity of 77.9 a.u.
With `CTCTTTTCGCGGAGCCGCATGCAAGGCTACATTAAAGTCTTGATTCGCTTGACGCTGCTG` the fluorescence intensity was 76.8 a.u.
The fluorescence intensity of `CATACCCAACCTTGACCTGTGGGTGAAGATATTTGTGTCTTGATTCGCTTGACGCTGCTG` is reported as 66.6 a.u.
With `CCGATGACGAGTTGGTCCGTGATGGCGGAACTAACTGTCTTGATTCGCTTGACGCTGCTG` the fluorescence intensity was 68 a.u.
`ATTTCGGGGCGGGTCCCCGTGGTGACGCTGGTGACGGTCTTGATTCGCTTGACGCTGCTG` gave a fluorescence intensity of 72.6 a.u.
With `CTTTCCCGATCTTGGTCAGTGGGTGTAGCACATTTGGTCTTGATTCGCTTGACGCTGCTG` the fluorescence intensity was 64.2 a.u.
The fluorescence intensity of `CGTCCTAGTGATTGTCACAGTACTTCCATGAGGAAGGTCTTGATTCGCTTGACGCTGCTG` is reported as 95.4 a.u.
`TTACCCGGTACGAGTCACGTGATGGAGGTGCATTGGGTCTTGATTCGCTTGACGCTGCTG` gave a fluorescence intensity of 16400 a.u.
With `GATTCCTCATCTCGTCAGGTGATATTTGCATTCTATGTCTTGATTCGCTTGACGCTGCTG` the fluorescence intensity was 974 a.u.
`TGTACACATTACTGGCACGCTCTAATAGTTCGTTTAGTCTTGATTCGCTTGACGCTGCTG` gave a fluorescence intensity of 89.8 a.u.
With `ATACGACTCCCAACACACGTTTAATGTTGTACGAATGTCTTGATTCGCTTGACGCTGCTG` the fluorescence intensity was 84 a.u.
For `AAAGCGGTAATTTGTCGGGTGGGTGCAGATATCTATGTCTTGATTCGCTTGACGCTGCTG`, the fluorescence intensity was 74.8 a.u.
`TTCCAGTGTTTCTTATCCGTGATGGTTTAATGGTCAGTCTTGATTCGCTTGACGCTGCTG` gave a fluorescence intensity of 85.1 a.u.
`CTAACGAAGGTTTGTCACGTTACTTACAAGCCAAGTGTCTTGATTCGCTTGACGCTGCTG` has a fluorescence intensity of 791 a.u.

Study 3 — method: protein binding microarray; form: double-stranded DNA, one strand shown; matrix: in vitro; tested at: not given; relative to: not given; reading: higher = stronger binding
Target: Histone acetyltransferase KAT6A, winged helix 2, GST fusion (KAT6A, Homo sapiens, UniProt Q92794, residues 85-181)
Setting: 8-mer, flanks averaged, mean of 2 arrays, mostly near background
Target sequence (chain): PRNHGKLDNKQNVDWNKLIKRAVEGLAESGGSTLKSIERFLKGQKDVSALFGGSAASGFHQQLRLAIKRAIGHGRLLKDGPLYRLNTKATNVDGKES
For `GATCCGCA`, the E-score was 0.0342.
`GTTTTAGA` gave an E-score of 0.0491.
The E-score of `ATGTAACG` is reported as 0.00549.
`TCTCCTCA` has an E-score of -0.0337.
`AATAGGGT` has an E-score of -0.0931.
With `CCCCCAGA` the E-score was -0.0592.
With `GGAAATCA` the E-score was 0.0987.
`AGGGACGC` has an E-score of 0.00743.
For `AACGTATT`, the E-score was -0.0693.
`CTAATCGA` gave an E-score of 0.0691.
The E-score of `AACTAGCA` is reported as 0.0614.
`AACTTCAG` has an E-score of 0.0555.
`CGAATTAG` has an E-score of 0.112.
For `TGATCGAA`, the E-score was 0.0496.
The E-score of `CTTTTTGC` is reported as 0.193.
`ATCTATCG` gave an E-score of -0.065.
With `ATCAGTGC` the E-score was 0.0663.
`TCACTACA` gave an E-score of 0.0232.
`CAGGTTAC` gave an E-score of -0.0491.
The E-score of `AGCTCTGA` is reported as -0.0754.
The E-score of `GGGAGGTA` is reported as -0.0717.
For `GAGCAAGC`, the E-score was 0.121.
`GCGAACCC` gave an E-score of 0.197.
With `TATCGCAA` the E-score was 0.0833.
The E-score of `GTCTTATA` is reported as -0.286.

Study 4 — method: RNA Bind-n-Seq; form: RNA; matrix: in vitro; tested at: 365 nM; relative to: no-protein control; reading: higher = stronger binding
Target: RNA binding protein fox-1 homolog 2, RRM domain, GST-SBP tag (RBFOX2, Homo sapiens, UniProt O43251-10, residues 100-194)
Setting: natural RNA segment, single round, ends assumed
Construct (chain): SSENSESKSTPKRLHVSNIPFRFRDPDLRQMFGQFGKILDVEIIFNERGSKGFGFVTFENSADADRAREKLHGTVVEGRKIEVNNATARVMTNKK
For `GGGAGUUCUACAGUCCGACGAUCCUCAUUCUUCUGUUUCCAUACCAAAGGCCAGGAGUGCUUCACUGUGCUGGAGCCAUGGUGUCCUUUGGAGGGACAACGGUGCACGCGGCAUGUAUCCUGGCUGAAGCGCUUGGAAUUCUCGGGUGCCAA`, “RBNS enrichment (R)” read 3.03.
`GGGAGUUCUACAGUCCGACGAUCCCAGUGUUUUUAAGAGAAUGUUUCUUAAAACCAAUAGGAAACUUAAGCGAGGUUUCAUGACACAACCUUUCAUGUCGUGAAAGGCAGAGGGUGACUGUGUGUGAUGUGCAUGGAAUUCUCGGGUGCCAA` — result for “RBNS enrichment (R)”: 5.92.
`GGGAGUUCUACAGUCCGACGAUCGGAUUAUCUGUCAUUCAAGAUCCUUCCUUCAACCCCAAGGUCAGCUCCCAUCUCAUUUCCAGAAAGGCUCAUACCUGGCUUGCAGGGAAGCAUCUGUCUUGUCAUUCCAGUGGAAUUCUCGGGUGCCAA`: “RBNS enrichment (R)” 0.423.
`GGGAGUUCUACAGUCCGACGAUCGUCACUGGUCAGAAUCCUCACUGAGCUCCCAGUCCAGAGAGAAGCCAGACAAUUAAAACAGUAAUGAAAUGAUGUGUGUGGCCUUUGUCUACUCAAGGUCCCUUUCUGCUUGGAAUUCUCGGGUGCCAA` — result for “RBNS enrichment (R)”: 0.177.
`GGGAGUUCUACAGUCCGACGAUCGACGUCAGCCAUGUACAGGAUCCACAGGGGUGGUGUCAAAUGCUAUUGAAAUUGUGUUGAAUUGUAUGCUUUUUCACUUUUGAUAAAUAAACAUGUAAAAAUGUUUCAAAUGGAAUUCUCGGGUGCCAA`: “RBNS enrichment (R)” 2.23.
`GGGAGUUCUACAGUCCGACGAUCCAGUCUGUAAGCAGGAGUCAUUGCCAUGUUGCCCUCCCUGCUGGUGUUACUGUGUUCCCUUAGAGCAUGUGGGCCAGUGGGCCACAUUCAUAAUGCAGUUGCCCAAGGCCUGGAAUUCUCGGGUGCCAA`: “RBNS enrichment (R)” 2.84.
For `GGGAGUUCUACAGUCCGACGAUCCAAGGUCAGCUGUCAAAAGGAUAAGCUGUGGGGUUAGAACAUAUUACAUUGCAACAUCCUAAAUUGUUUUUAAAACGUCAGCAAACUAUUGGGUCAACUGACAUCCAUUGUGGAAUUCUCGGGUGCCAA`, “RBNS enrichment (R)” read 0.334.
`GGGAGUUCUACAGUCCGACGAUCCUUGAAAUUGAUCUCUAUACUCUAGCCCCUCAGCCAGCCUCCUUCCUGUUGUCUGAAACCUGGAGCUAAGCAGGUUGUCCUGUCACAAGCUCUGGGGACUGAGCUCCAUGUGGAAUUCUCGGGUGCCAA`: “RBNS enrichment (R)” 0.277.

Excerpt of the above (study 2):
`TGCGCAACAACTTGCCCCGTGGGTGTATGTCTAGAAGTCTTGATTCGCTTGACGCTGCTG` has a fluorescence intensity of 70.8 a.u.
The fluorescence intensity of `CATACCCAACCTTGACCTGTGGGTGAAGATATTTGTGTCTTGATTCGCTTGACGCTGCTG` is reported as 66.6 a.u.
`CTAACGAAGGTTTGTCACGTTACTTACAAGCCAAGTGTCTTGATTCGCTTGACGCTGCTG` has a fluorescence intensity of 791 a.u.
`ATTTCGGGGCGGGTCCCCGTGGTGACGCTGGTGACGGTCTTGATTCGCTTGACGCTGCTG` gave a fluorescence intensity of 72.6 a.u.
For `TTGGAAAGTGGCGATCTTGTGACGGTCAACGATGATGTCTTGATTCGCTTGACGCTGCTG`, the fluorescence intensity was 76.3 a.u.
